Experimental data of several laboratories.
Lines come from different studies, so protocols differ.

| SMILES | organism | test | test system | setting | MIC |
| --- | --- | --- | --- | --- | --- |
| CC(=O)NC[C@H]1CN(c2ccc(N3CCOCC3)c(F)c2)C(=O)O1 | Staphylococcus aureus | broth microdilution | vancomycin-resistant VRS11a | – | 2 µM |
| CC1(C)SC2C(NC(=O)C(NC(=O)C3=C(O)C(c4ccccc4)NC3=O)c3ccccc3)C(=O)N2C1C(=O)O (stereo not drawn) | Escherichia coli | broth microdilution | ATCC 25922 wild type | added: clavulanic acid 6 µg/mL | 12.5 µg/mL |
| CN[C@H](CC(C)C)C(=O)N[C@H]1C(=O)N[C@@H](CC(N)=O)C(=O)N[C@H]2C(=O)N[C@H]3C(=O)N[C@H](C(=O)N[C@H](C(=O)O)c4cc(O)cc(O)c4-c4cc3ccc4O)[C@H](O)c3ccc(c(Cl)c3)Oc3cc2cc(c3O[C@@H]2O[C@H](CO)[C@@H](O)[C@H](O)[C@H]2O[C@H]2C[C@](C)(N)[C@H](O)[C@H](C)O2)Oc2ccc(cc2Cl)[C@H]1O | Streptococcus pyogenes | – | erythromycin-sensitive, 21 strains | – | 0.41 µg/mL |
| CC(=O)ON=C1C=CC(=C(C#N)c2ccccc2)C=C1 | Candida | – | clinical isolates | range for 70 of 100 strains | 16 to 128 µg/mL |
| N=C(N)c1ccc(OCc2cccc(COc3ccc(C(=N)N)cc3)c2)cc1 | Escherichia coli | – | mcr-1 polymyxin-resistant | 20 h, compound alone | 200 µg/mL |
| CC1(C)S[C@@H]2[C@H](NC(=O)[C@H](N)c3ccccc3)C(=O)N2[C@H]1C(=O)O | Salmonella enterica serovar Typhimurium | broth microdilution | clinical isolate RKI-No 437/14 | – | > 16 µg/mL |
| CCCCCCCCCC(=O)N[C@@H](Cc1c[nH]c2ccccc12)C(=O)N[C@H](CC(N)=O)C(=O)N[C@@H](CC(=O)O)C(=O)N[C@@H]1C(=O)NCC(=O)N[C@@H](CCCN)C(=O)N[C@@H](CC(=O)O)C(=O)N[C@H](C)C(=O)N[C@@H](CC(=O)O)C(=O)NCC(=O)N[C@H](CO)C(=O)N[C@@H]([C@H](C)CC(=O)O)C(=O)N[C@@H](CC(=O)c2ccccc2N)C(=O)O[C@@H]1C | Staphylococcus aureus | – | SH1000 | added: menaquinone-4, molar ratio 1 | 1 µg/mL |
| CC(C)C[C@@H]1NC(=O)[C@@H](Cc2ccccc2)NC(=O)[C@H](CCN)NC(=O)[C@@H](NC(=O)[C@H](CCN)NC(=O)[C@@H](N)[C@@H](C)O)CCNC(=O)[C@H]([C@@H](C)O)NC(=O)[C@H](CCN)NC(=O)[C@H](CCN)NC1=O | Escherichia coli | – | W3110 | – | > 200 µg/mL |
| CNC(C)C1CCC(N)C(OC2C(N)CC(N)C(OC3OCC(C)(O)C(NC)C3O)C2O)O1 (stereo not drawn) | Salmonella enterica serovar Typhimurium | broth microdilution | clinical isolate RKI-No 437/14 | – | 1 µg/mL |
| N=C(N)c1ccc(OCc2cc(COc3ccc(C(=N)N)cc3)cc(-c3ccccc3)c2)cc1 | Escherichia coli | – | mcr-2 polymyxin-resistant | 20 h, compound alone | 100 µg/mL |
| OC(Cn1cncn1)(Cn1cncn1)c1ccc(F)cc1F | Candida | – | – | twelve fungal strains | 6.73 µM |
| O=C1OC[C@H]2OC(O)[C@H](O)[C@@H](O)[C@@H]2OC(=O)c2cc(O)c(O)c(O)c2-c2c(O)c(O)c3oc(=O)c4c(c(O)c(O)c5oc(=O)c2c3c54)-c2c1cc(O)c(O)c2O (mixture of isomers) | Streptococcus mutans | – | – | 24 h, 37 °C | 200 µg/mL |

Repeated from above:
| SMILES | organism | test | test system | setting | MIC |
| --- | --- | --- | --- | --- | --- |
| N=C(N)c1ccc(OCc2cccc(COc3ccc(C(=N)N)cc3)c2)cc1 | Escherichia coli | – | mcr-1 polymyxin-resistant | 20 h, compound alone | 200 µg/mL |
| CC1(C)S[C@@H]2[C@H](NC(=O)[C@H](N)c3ccccc3)C(=O)N2[C@H]1C(=O)O | Salmonella enterica serovar Typhimurium | broth microdilution | clinical isolate RKI-No 437/14 | – | > 16 µg/mL |
